Results of several laboratories.
Protocols differ between the studies behind these lines. Values joined by “and” are separate records of one study, mostly repeats; a detail may differ.
Target: Serine/threonine-protein kinase Nek7 (NEK7, Homo sapiens, UniProt Q8TDX7)
One construct used (Q8TDX7 1-302): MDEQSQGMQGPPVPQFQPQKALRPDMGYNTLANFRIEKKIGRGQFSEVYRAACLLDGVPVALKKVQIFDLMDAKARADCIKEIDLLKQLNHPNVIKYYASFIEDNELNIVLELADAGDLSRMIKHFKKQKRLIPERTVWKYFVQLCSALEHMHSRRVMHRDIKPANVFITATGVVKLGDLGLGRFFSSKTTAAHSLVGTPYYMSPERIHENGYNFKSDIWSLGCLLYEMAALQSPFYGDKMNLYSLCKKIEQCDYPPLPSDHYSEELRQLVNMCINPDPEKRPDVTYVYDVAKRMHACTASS

C=CC(=O)Nc1cccc(-c2cnc3[nH]cc(C(=O)NC(C)(C)C)c3n2)c1
inhibition (enzyme activity, inhibitor; 0.1 µM): 2%

CN1CCN(Cc2ccc(-c3ccc(CO[C@H]4CCC[C@@H]4NC(=O)c4cc(-c5cnn(C)c5)cnc4N)cc3)cc2)CC1
inhibition (enzyme activity, inhibitor; 0.1 µM): 5%

Cc1cccc(O[C@H]2CCC[C@@H](C(C)CNCc3ccncc3)C2)c1 (relative stereo)
inhibition (enzyme activity, inhibitor; 10 µM): -16%

C=CC(=O)N1CCc2ccc(-n3c(=O)ccc4cnc5ccc(-c6cnn(C)c6)cc5c43)cc21
remaining binding (KINOMEscan; 1 µM; reference: DMSO control): 100%

COc1ccc(NC(=O)Nc2ccc3c(c2)C(=O)N(C(C)CO)CC(C)C(CN(C)Cc2ccc4c(c2)OCO4)O3)cc1 (stereo not shown)
remaining activity (kinase activity, KinaseProfiler; 0.03 µM, species human; reference: control): 109%

O=C=[N][Ru-4]123([n]4c5ccc(O)cc5c5c6c(c7cc(F)c[n+]1c7c54)C(=O)NC6=O)[S+]1CC[S+]2CC[S+]3CC1 (stereo not shown)
remaining activity (enzyme activity; 100 nM, human enzyme, added: 10 µM ATP; reference: untreated): 83%

Cc1nc2c(F)cc(-c3nc(Nc4ccc(CNC(=O)CCCCCCC(=O)NO)cc4)ncc3F)cc2n1C(C)C
inhibition (enzyme activity, inhibitor; 1 µM): 24%

CNC(=O)C[C@H](Cc1ccc(C#N)cc1)NC(=O)c1cc(-c2ccc(CN[C@H](C)c3ccc(C)cc3)o2)ccc1Cl
activity vs control (enzyme activity, inhibitor; 1 µM): 96%

O=C(Cc1ccc(OCc2ccccc2)cc1)NC1(C(=O)O)CCN(C(=O)c2ccc(-c3cccc(Cl)c3)cc2)CC1
activity vs control (enzyme activity, inhibitor; 10 µM): 122%

COc1ccc(C(=O)/C=C/c2ccccc2-c2c[nH]c3ccc(C#N)cc23)c(O)c1
inhibition (enzyme activity, inhibitor; 20 µM): -1%

COCC12C(=O)NC3C4(C(OC)CC1O)C1CC5(O)C(OC)C(O)C(OC(C)=O)(C1C5OC(=O)c1ccccc1)C3(O)C(OC)C24 (stereo not shown)
remaining activity (kinase activity, inhibitor, ProQinase kinase profiling; 25 µM; reference: control): 100% and 77%

CC(C)=CC1OC(C)(C)C2C=C3C(=O)C(Cl)=CC(O)C3C3C(O)C4OC4C(=O)C132 (stereo not shown)
remaining binding (cell-free assay, competition with immobilised ligand; 10 µM): 90%

CN1CC[C@@H](COc2cnc(C#N)cc2-c2ccn3nc(NC(=O)C4CC4)cc3c2)C1
inhibition (enzyme activity, inhibitor; 1 µM): -12%

COc1cc(Nc2nc(C)cc(-c3cnn4nc(OC)ccc34)n2)cc(C(F)(F)F)c1
remaining binding (binding, competition with immobilised ligand; 1 µM): 83%

NC(=O)C[C@H]1CCc2sc3ncnc(O[C@H]4CC[C@H](N5CCOCC5)CC4)c3c21
inhibition (enzyme activity, inhibitor; 10 µM): 6%

CN1C[C@@H](c2c[nH]c3cc(Br)ccc23)NC[C@@H]1c1c[nH]c2cc(Br)ccc12
remaining activity (enzyme activity, inhibitor; 10 µM): 118%

A few entries again:
CC(C)=CC1OC(C)(C)C2C=C3C(=O)C(Cl)=CC(O)C3C3C(O)C4OC4C(=O)C132 (stereo not shown)
remaining binding (cell-free assay, competition with immobilised ligand; 10 µM): 90%

CN1CC[C@@H](COc2cnc(C#N)cc2-c2ccn3nc(NC(=O)C4CC4)cc3c2)C1
inhibition (enzyme activity, inhibitor; 1 µM): -12%
